Measurements collected from several papers.
Protocols differ between the studies behind these lines.

| SMILES | medium | concentration | pH | temperature | notes | measurement | result |
| --- | --- | --- | --- | --- | --- | --- | --- |
| CC1=CC(C)=[N+]2C1=C(c1ccc(C[P+](c3ccccc3)(c3ccccc3)C3CCCCC3)cc1)c1c(C)cc(C)n1[B-]2(F)F | PBS | 10 µM | pH 7.4 | 298 K | – | excitation maximum | 497 nm |
| CC1=CC(C)=[N+]2C1=C(CCCC(=O)NCCCC[C@H](NC(=O)N[C@@H](CCC(=O)O)C(=O)O)C(=O)O)c1c(C)cc(C)n1[B-]2(F)F | acetonitrile/water | – | – | – | – | excitation wavelength | 496 nm |
| CC1=CC(C)=[N+]2C1=C(c1ccc(C[P+](C3CCCCC3)(C3CCCCC3)C3CCCCC3)cc1)c1c(C)cc(C)n1[B-]2(F)F | PBS | 10 µM | pH 7.4 | 298 K | – | excitation maximum | 497 nm |
| O=c1c(Br)c2oc3c(CN(Cc4ccccn4)Cc4cnccn4)c(O)c(Cl)cc3nc-2c2ccccc12 | aqueous buffer | – | pH 7.0 | – | Zn2+-saturated | excitation maximum | 530 nm |
| NCCC(=O)N1Cc2ccccc2-c2c(nnn2-c2nc(N)c3ncn(C4OC(CO)C(O)C4O)c3n2)-c2ccccc21 (mixture of isomers) | methanol | – | – | – | – | excitation maximum | 295 nm |
| Cc1nc(N(C)C)ccc1N | phosphate buffer with BSA | – | pH 8 | 37 °C | 1% DMSO | excitation maximum | 328 nm |
| O=c1[nH]c(=O)n(C2OC(CO)C(O)C2O)cc1-n1nnc2c1CCC1C(CO)C1CC2 (mixture of isomers) | methanol | – | – | – | – | excitation maximum | 276 nm |
| O=c1c(Br)c2oc3c(CN(Cc4ccccn4)Cc4cnccn4)c(O)ccc3nc-2c2ccccc12 | aqueous buffer | – | pH 7.0 | – | Zn2+-saturated | excitation maximum | 525 nm |
| CC1=CC(C)=[N+]2C1=C(CCCC(=O)NCC1CCC(C(=O)NC(Cc3ccc4ccccc4c3)C(=O)NCCCCC(NC(=O)NC(CCC(=O)O)C(=O)O)C(=O)O)CC1)c1c(C)cc(C)n1[B-]2(F)F (stereo not drawn) | acetonitrile/water | – | – | – | – | excitation wavelength | 495 nm |
| Nc1ncnc2c1nc(-n1nnc3c1CCC1C(CO)C1CC3)n2C1OC(CO)C(O)C1O (mixture of isomers) | methanol | – | – | – | – | excitation maximum | 280 nm |
| CC1=CC(C)=[N+]2C1=C(CCCC(=O)NCCCCCC(=O)NCCCCCC(=O)NCCCC[C@H](NC(=O)N[C@@H](CCC(=O)O)C(=O)O)C(=O)O)c1c(C)cc(C)n1[B-]2(F)F | acetonitrile/water | – | – | – | – | excitation wavelength | 496 nm |
| Nc1ncnc2c1nc(-n1nnc3c1CCC1C(CO)C1CC3)n2C1CC(O)C(CO)O1 (mixture of isomers) | methanol | – | – | – | – | excitation maximum | 290 nm |

Excerpt of the above:
| SMILES | medium | concentration | pH | temperature | notes | measurement | result |
| --- | --- | --- | --- | --- | --- | --- | --- |
| O=c1c(Br)c2oc3c(CN(Cc4ccccn4)Cc4cnccn4)c(O)ccc3nc-2c2ccccc12 | aqueous buffer | – | pH 7.0 | – | Zn2+-saturated | excitation maximum | 525 nm |
